Measured values gathered from unrelated publications.
Parts stem from different laboratories: compare values within a part only. Several values in a cell are separate wells, animals, samples, runs or records.
Chain of UniProt Q8NI60 (whole entry, looked up): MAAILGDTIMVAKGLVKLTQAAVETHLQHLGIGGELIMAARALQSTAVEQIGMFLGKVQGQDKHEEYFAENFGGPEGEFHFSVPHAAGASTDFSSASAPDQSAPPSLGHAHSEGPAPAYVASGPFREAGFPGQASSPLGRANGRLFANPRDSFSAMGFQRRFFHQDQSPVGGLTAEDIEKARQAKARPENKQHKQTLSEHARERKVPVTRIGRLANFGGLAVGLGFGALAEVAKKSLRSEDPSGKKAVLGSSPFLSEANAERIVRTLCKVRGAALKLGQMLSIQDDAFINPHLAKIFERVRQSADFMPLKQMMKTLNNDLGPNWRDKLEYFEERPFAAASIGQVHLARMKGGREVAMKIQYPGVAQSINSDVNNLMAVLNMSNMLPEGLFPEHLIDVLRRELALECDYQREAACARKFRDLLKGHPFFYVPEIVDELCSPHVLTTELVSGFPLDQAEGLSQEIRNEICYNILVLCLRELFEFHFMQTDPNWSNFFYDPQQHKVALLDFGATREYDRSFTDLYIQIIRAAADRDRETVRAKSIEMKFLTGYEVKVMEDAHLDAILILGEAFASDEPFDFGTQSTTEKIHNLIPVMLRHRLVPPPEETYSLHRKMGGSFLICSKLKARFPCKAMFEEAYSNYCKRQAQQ
Chain of UniProt P49759 (whole entry, looked up): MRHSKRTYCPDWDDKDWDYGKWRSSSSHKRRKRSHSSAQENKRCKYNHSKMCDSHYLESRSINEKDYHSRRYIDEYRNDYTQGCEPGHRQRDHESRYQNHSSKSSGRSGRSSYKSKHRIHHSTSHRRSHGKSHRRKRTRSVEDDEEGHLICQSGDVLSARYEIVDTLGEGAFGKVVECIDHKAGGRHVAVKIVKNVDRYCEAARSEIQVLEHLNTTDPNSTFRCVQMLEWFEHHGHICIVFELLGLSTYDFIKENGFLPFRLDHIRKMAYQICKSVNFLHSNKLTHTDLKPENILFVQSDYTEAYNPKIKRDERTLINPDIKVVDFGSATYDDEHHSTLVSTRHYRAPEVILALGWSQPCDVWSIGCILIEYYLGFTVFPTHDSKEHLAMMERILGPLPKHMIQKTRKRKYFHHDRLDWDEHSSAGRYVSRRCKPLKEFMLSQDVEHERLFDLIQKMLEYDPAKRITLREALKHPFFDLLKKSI
Chain of UniProt Q9BWU1 (whole entry, looked up): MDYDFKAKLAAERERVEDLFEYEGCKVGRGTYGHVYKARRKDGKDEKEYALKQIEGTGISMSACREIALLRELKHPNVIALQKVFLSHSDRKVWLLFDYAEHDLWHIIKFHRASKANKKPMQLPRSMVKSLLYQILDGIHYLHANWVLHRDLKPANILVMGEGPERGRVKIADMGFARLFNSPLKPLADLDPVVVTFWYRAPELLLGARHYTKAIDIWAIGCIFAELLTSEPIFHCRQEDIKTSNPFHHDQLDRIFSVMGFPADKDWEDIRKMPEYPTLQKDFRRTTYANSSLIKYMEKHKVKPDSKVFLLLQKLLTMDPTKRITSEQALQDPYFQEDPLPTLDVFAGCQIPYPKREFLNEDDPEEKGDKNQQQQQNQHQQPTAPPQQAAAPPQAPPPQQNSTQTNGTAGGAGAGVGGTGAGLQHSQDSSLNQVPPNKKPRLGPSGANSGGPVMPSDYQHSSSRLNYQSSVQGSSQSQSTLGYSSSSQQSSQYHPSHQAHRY
Chain of UniProt O43283 (whole entry, looked up): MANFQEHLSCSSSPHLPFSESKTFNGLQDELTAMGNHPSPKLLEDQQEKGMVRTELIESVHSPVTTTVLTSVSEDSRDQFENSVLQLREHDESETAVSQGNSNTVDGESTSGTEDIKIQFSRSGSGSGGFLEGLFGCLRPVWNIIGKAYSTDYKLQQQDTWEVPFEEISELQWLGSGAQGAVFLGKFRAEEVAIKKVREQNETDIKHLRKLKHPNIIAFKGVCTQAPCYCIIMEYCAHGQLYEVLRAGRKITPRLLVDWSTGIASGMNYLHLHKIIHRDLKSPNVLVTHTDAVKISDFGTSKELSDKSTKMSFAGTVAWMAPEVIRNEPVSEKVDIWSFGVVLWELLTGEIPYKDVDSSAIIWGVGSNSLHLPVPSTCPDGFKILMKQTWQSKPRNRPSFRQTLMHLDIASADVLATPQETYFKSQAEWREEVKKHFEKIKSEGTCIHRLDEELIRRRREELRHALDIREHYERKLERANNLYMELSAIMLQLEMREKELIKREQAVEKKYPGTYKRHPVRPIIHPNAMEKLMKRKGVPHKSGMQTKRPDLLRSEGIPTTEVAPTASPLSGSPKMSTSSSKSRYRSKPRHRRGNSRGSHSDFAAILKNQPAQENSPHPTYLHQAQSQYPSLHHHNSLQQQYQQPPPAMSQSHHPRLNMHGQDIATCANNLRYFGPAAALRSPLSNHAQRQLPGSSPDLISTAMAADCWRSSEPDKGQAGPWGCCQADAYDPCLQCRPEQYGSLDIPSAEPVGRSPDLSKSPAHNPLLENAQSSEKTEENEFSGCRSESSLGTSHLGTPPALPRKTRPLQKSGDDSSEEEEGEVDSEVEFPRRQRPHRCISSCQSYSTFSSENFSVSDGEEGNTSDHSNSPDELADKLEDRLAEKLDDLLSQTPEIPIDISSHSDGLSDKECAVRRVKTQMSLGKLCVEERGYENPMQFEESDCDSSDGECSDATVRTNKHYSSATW
Chain of UniProt O60331 (whole entry, looked up): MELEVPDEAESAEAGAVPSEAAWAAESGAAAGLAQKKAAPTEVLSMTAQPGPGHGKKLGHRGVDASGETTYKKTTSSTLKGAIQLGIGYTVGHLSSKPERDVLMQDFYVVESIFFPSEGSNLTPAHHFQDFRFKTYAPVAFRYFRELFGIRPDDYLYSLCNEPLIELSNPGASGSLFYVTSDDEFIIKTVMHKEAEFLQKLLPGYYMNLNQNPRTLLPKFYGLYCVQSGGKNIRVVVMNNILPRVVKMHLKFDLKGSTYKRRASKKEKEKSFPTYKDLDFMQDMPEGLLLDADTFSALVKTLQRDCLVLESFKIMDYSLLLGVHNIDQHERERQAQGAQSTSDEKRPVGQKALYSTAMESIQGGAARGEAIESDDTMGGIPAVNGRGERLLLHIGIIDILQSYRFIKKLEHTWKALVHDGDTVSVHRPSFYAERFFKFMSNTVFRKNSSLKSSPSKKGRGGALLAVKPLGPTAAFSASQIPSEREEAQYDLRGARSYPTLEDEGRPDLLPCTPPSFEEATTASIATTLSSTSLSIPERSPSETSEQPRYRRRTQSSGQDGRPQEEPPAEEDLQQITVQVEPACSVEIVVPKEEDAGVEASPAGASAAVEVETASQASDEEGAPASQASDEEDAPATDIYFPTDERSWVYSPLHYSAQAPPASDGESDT

Series 1
Compound: CCC1(c2cccc(-c3cn(C)nc3C)c2)C2=C(Nc3n[nH]cc31)C(F)C(C)(C)CC2=O (single isomer, unassigned)
Concentration: 1 µM
Measurement: remaining binding
COQ8A (Homo sapiens, UniProt Q8NI60); kinase binding, KINOMEscan; reference: DMSO control: 100%
PIK3CA (Homo sapiens, UniProt P42336); binding, competition with immobilised ligand: 100%
Tyrosine-protein kinase ABL1, non-phosphorylated (ABL1, Homo sapiens, UniProt P00519, F317I); binding, competition with immobilised ligand: 100%
CDK19 (Homo sapiens, UniProt Q9BWU1); KINOMEscan: 100%
LRRK2 (Homo sapiens, UniProt Q5S007, G2019S); binding, competition with immobilised ligand: 92%
CLK1 (Homo sapiens, UniProt P49759); binding, competition with immobilised ligand: 100%
EPHA8 (Homo sapiens, UniProt P29322); kinase binding, KINOMEscan; reference: DMSO control: 100%
Tyrosine-protein kinase ABL1, non-phosphorylated (ABL1, Homo sapiens, UniProt P00519, Q252H); kinase binding, KINOMEscan; reference: DMSO control: 87%
LATS2 (Homo sapiens, UniProt Q9NRM7); kinase binding, KINOMEscan; reference: DMSO control: 89%
SGK2 (Homo sapiens, UniProt Q9HBY8); kinase binding, KINOMEscan; reference: DMSO control: 100%
RIPK1 (Homo sapiens, UniProt Q13546); kinase binding, KINOMEscan; reference: DMSO control: 100%
DAPK1 (Homo sapiens, UniProt P53355); kinase binding, KINOMEscan; reference: DMSO control: 87%
KIT (Homo sapiens, UniProt P10721, L576P); binding, competition with immobilised ligand: 77%
RIPK4 (Homo sapiens, UniProt P57078); binding, competition with immobilised ligand: 74%

Series 2
Compound: C[C@@H]1CN(c2ccc(-c3cc(C(=O)NCCOCCOCCOCCOCCNC(=O)/C=C/c4[nH]cc(C(=O)N[C@@H](CC(N)=O)c5ccc(F)c(Cl)c5)c4-c4ccc(Cl)cc4F)ccc3F)cc2NC(=O)c2c[nH]c(=O)cc2C(F)(F)F)C[C@H](C)N1C
Observed: thermal unfolding
Technique: differential scanning fluorimetry
Concentration: 5.5 µM
Direction: higher = more unfolded
Measurement: SYPRO Orange fluorescence
DCAF1: DDB1- and CUL4-associated factor 1 (DCAF1, Homo sapiens, UniProt Q9Y4B6)
Chain of UniProt Q9Y4B6 (whole entry, looked up): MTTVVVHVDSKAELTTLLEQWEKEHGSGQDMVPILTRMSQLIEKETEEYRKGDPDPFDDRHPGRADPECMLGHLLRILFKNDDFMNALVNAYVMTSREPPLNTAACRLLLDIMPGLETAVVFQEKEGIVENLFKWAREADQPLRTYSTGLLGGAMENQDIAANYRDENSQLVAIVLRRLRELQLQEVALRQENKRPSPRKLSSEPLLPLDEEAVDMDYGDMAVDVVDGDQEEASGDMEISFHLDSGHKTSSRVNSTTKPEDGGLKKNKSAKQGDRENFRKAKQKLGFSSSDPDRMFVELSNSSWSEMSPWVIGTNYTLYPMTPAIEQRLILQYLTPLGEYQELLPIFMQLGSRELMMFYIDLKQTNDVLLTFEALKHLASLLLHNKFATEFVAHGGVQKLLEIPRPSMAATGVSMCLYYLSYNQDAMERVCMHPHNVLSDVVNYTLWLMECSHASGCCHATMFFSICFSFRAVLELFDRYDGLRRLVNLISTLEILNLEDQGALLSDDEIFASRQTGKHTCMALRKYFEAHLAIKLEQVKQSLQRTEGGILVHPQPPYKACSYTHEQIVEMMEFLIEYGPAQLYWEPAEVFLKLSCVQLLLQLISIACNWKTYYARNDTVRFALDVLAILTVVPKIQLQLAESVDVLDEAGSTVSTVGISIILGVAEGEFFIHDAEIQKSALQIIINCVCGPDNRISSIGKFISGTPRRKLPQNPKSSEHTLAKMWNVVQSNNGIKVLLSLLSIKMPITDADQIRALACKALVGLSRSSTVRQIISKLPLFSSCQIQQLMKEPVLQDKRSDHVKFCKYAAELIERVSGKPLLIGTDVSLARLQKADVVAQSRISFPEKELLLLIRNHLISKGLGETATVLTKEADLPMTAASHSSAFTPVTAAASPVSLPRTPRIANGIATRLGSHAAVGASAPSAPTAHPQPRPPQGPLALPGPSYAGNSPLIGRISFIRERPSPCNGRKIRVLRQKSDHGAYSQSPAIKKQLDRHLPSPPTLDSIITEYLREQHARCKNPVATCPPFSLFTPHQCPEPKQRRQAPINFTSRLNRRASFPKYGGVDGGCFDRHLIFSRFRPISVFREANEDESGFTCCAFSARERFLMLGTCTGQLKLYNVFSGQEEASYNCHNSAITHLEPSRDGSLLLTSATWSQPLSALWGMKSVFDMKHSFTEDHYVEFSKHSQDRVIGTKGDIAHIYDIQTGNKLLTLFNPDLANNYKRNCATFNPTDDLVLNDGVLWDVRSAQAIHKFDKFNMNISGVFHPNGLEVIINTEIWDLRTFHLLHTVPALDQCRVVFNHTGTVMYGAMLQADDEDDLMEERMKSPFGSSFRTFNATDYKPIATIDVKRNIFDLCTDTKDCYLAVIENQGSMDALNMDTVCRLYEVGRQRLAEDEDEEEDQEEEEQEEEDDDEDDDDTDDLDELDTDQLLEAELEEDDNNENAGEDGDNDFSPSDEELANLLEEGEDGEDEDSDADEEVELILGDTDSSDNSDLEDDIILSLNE
WDR5: WD repeat-containing protein 5 (WDR5, Homo sapiens, UniProt P61964)
DCAF1; 93.61 °C: 31000 a.u.
WDR5; 86.61 °C: 53600 a.u.
WDR5; 90.21 °C: 50900 a.u.
WDR5; 37.6 °C: 13800 a.u.
DCAF1; 66.81 °C: 59100 a.u.
WDR5; 61.61 °C: 15100 a.u.
DCAF1; 27.6 °C: 8920 a.u.
WDR5; 53.21 °C: 16800 a.u.

Series 3
SMILES: O=C(Nc1ccccc1)Nc1cccc(Oc2ccc3nccn3n2)c1
Concentration: 1 µM
Measurement: remaining binding
MAST1 (Homo sapiens, UniProt Q9Y2H9); binding: 100%
DDR2 (Homo sapiens, UniProt Q16832); binding, competition with immobilised ligand: 99%
PAK1 (Homo sapiens, UniProt Q13153); binding: 100%
ALK (Homo sapiens, UniProt Q9UM73, C1156Y); binding: 88%
NEK2 (Homo sapiens, UniProt P51955); binding, competition with immobilised ligand: 100%
PLK2 (Homo sapiens, UniProt Q9NYY3); binding: 100%
MARK3 (Homo sapiens, UniProt P27448); binding: 100%
ERBB4 (Homo sapiens, UniProt Q15303); binding, competition with immobilised ligand: 100%
RIOK3 (Homo sapiens, UniProt O14730); binding: 85%
MAP3K13 (Homo sapiens, UniProt O43283); cell-free binding: 100%
COQ8A (Homo sapiens, UniProt Q8NI60); binding, competition with immobilised ligand: 95%
PIM1 (Homo sapiens, UniProt P11309); binding: 100%
TAOK2 (Homo sapiens, UniProt Q9UL54); binding, competition with immobilised ligand: 100%
CDC42BPB (Homo sapiens, UniProt Q9Y5S2); binding, competition with immobilised ligand: 96%
BMPR2 (Homo sapiens, UniProt Q13873); binding: 100%
MYLK2 (Homo sapiens, UniProt Q9H1R3); cell-free binding: 100%
PIP5K1C (Homo sapiens, UniProt O60331); binding: 51%
PLK4 (Homo sapiens, UniProt O00444); binding, competition with immobilised ligand: 100%
CHEK2 (Homo sapiens, UniProt O96017); binding: 99%
CDK3 (Homo sapiens, UniProt Q00526); binding, competition with immobilised ligand: 90%
Tyrosine-protein kinase ABL1, non-phosphorylated (ABL1, Homo sapiens, UniProt P00519); binding, competition with immobilised ligand: 11%

Series 4
SMILES: Cc1ncsc1-c1ccc(C(CO)NC(=O)C2CC(O)CN2C(=O)C(C(C)C)n2cc(-c3ccc(COc4c(-c5c(C)c(F)cc6[nH]ncc56)c(C5CC5)cc5c(N6CC7CC6CN7)nc(OC6CCOCC6)nc45)cc3)nn2)cc1 (centres unmarked)
Measurement: tumour volume
GP5d xenograft, mouse; 30 mg/kg once weekly, day 7: 178 mm3 and 223 mm3 and 167 mm3 and 168 mm3 and 149 mm3
mouse, GP2d xenograft; 30 mg/kg once weekly, day 0: 197 mm3 and 212 mm3 and 229 mm3 and 176 mm3 and 191 mm3
HPAC xenograft, mouse; 30 mg/kg once weekly, day 0: 226 mm3 and 214 mm3 and 258 mm3 and 204 mm3 and 239 mm3
mouse, lung LXFA sample B PDX; 10 mg/kg twice weekly, day 18: 336 mm3 and 171 mm3 and 53.1 mm3 and 157 mm3 and 274 mm3 and 343 mm3 and 140 mm3 and 120 mm3
mouse, HT-29 xenograft; sc, 30 mg/kg once daily, day 1: 194 mm3 and 216 mm3 and 186 mm3 and 189 mm3 and 201 mm3
mouse, PK-59 xenograft; 3 mg/kg, day 17: 527 mm3 and 523 mm3 and 375 mm3 and 447 mm3 and 376 mm3
HPAC xenograft, mouse; 30 mg/kg twice weekly, day 14: 198 mm3 and 339 mm3 and 242 mm3 and 214 mm3 and 180 mm3
